Measured values collected from several papers.
Every numbered part comes from another study and shows a few of its results, in no order.

Sample 1
Target: RING finger protein unkempt homolog, zinc fingers 1-6, GST-SBP tag (UNK, Homo sapiens, UniProt Q9C0B0, residues 30-357)
UniProt Q9C0B0, sequence (30-357, looked up): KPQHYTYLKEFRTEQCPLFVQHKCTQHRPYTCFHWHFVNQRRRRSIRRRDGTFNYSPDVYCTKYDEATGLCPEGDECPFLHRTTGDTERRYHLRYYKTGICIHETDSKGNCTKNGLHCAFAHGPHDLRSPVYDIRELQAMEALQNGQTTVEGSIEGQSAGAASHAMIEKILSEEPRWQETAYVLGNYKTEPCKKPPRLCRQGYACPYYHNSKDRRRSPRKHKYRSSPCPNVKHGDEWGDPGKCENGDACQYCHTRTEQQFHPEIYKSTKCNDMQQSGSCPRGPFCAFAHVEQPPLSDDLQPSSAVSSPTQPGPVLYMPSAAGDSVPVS
Technique: RNA Bind-n-Seq
Molecule type: RNA
Matrix: in vitro
Tested at: not given
Notes: RNA with constant flanks, human and mouse sites, ends assumed
Baseline: input RNA pool
Reading: higher = stronger binding
Constant ends, left off below: GGGAGUUCUACAGUCCGACGAUC … CAACAGAGGAUUGAGCAUCA
| Oligonucleotide | bound/input enrichment |
| --- | --- |
| AUUUUGCUUUUUUCCCCUCACAUUGAAUUUUAAUUCCAUUCUUGAAUGUAGAAAUUUCAGAUUCUCUAAAACUACAUGUCACUGUUUUUAUCCUAGAAAAUGUUGCUGUCAGAAGGCAAA | 0.461 ratio |
| GGAAUUCUCUGCUCACUGCUGGGUACUGUUCUGCUGUGGGUGCCCAGGAAGGGACUACACCUCUUCGCAGUGUUUUAUACCUUUGGUAAUAUCGCAUCAAUUGGGAGUACCAUCUUCCUC | 0.151 ratio |
| GAUCAAGCUAGAUCAGCAUUCUCUAACUUGUUUGGUGGAGAACCAUUGUCAUAUACCCGGUUCAGCCUGGCUCGGCAAGUAGAUGGCGAUAACAGUCAUGUGGAGAUGAAACUUGCUGUA | 0.153 ratio |
| GGACUAGAAGGGGAAGAUGAAGGAGCCAUAAGUAUGCUUUCUGACAAUACCGCUAAGCUAACAUCAGCUGUUAGUUCUUUGCCAGAACUCCUUGAGAAAAAAAGACUUAUUGAUCUCCAU | 0.11 ratio |
| CAUCGCAUGCCCAGGGACCACUGCCUGGCAUUAUCGCAUGCUGGGAUCAUCGGGGGAGGGUAGUGAAGCUCACCACUGUCCUUUGUUUUGGAGAUUUUUAUUUUUGCAUAAGUAGUCCAU | 0.23 ratio |
| UUUCAGCAACUGGUCAAUUUUUCAGAAGGAGGACCAGGCUCUAAUUCUACUGGCAGUGAAGUAGCAUCGAUGUCCUCGCAGCUCCCAGAUACACCCAACAGCAUGGUAGCCAGUCCUAUU | 0.197 ratio |
| GAAGCACAGCGAUGGCAGGCAAGGCUGAUUUGGAGAGGAAGGUGAUGUUGGCAUUUCUCAACUAGGAAUGCACAGAGUACCACUCAAUGGUGAGCUUGCAAGAUUUGCACAAACUCAUGG | 0.169 ratio |
| GGUAAGACUGAGGCACCAGUGAGUGAGCAAACCACUUUAGGCCAGGAGAAUUACAUAUUCUCUAGAGGCCAAGCAUCUGAUGAAAAGAGCCUGCCUAGAGAUUUUAUUCCGGCAGCACAU | 0.136 ratio |
| GAAUUUCAGGAAUAUACCAUGCUGUGUCUGUUGUGUGGCAAAGCUGAAGAUACUAUCAGUAUUCUCCCUGAUGACCCCCGGCAGAUGACUCUGCUGUUCUAAGCCUCCCAUGGUUCUCUU | 0.197 ratio |
| UCUCUUCUUACUCAUUACUGCAAAUUGAUUGUCUUUCCCCCCUCCCUCCAGUACCAUAAUCUUAGAGACAAACCUUAAAACAGCUGUUUUUAGGCUGUUCCUUGUACUCUUAGGAUAUUU | 1.28 ratio |
| UGCCACCAUACCCAAUGGAUAGAACUUGAUUUUUAAAAGCUUGUUUUGUCAACUUGUAUGUAGUACAGUGGCCAGUGAUCGCCUAGCCUGCACGAGGCCCCGGGGUUGAUCUCCCGCAUC | 0.186 ratio |

Sample 2
Target: Interferon regulatory factor 5, full length, phosphomimetic (IRF5, Homo sapiens, UniProt Q13568-2, residues 1-514, S451D/S453D/S456D/S462D)
Technique: protein-binding microarray
Molecule type: double-stranded DNA, one strand shown
Matrix: in vitro
Tested at: 940 nM top
Notes: 60-bp whole probe
Together with: salmon DNA 0.4 mg/ml
Baseline: random background probes
Reading: higher = stronger binding
Constant ends, left off below: GCCTAGCAC … GTCTTGATTCGCTTGACGCTGCTG
| Oligonucleotide | fitted relative affinity [z-score] |
| --- | --- |
| CCTTTTTTGTTGTTTTTTGGGTGCTAG | 2.89 |
| TCAATTTTCACGGTGGGACTGTGCTAG | 0.208 |
| TTTGATATCAGTATCGATTAGTGCTAG | 5.01 |
| TTAGAACCGAGACTGGATTAGTGCTAG | 0.715 |
| GACGGACTGGGGATCGGGACGTGCTAG | -0.0694 |
| GACGATATCAGGACTGGAGACGTGCTA | -0.559 |
| TTAGGTTCCCTTTTCCGTTAGTGCTAG | 0.997 |
| TTAGGTTTCGACTATAGGTTAGTGCTA | 9.47 |
| GACGCACTGGGGTTTCGAGACGTGCTA | 2.02 |
| TACTGTGTGCATCTATCTTAGTGCTAG | -0.196 |
| GACGGTATCCTTGTCCTGACGTGCTAG | 0.171 |
| GACGGTATCCTACTGCTGTCGTGCTAG | 0.407 |
| TTAGATTTCAGTTCCAATTAGTGCTAG | 1.2 |
| CCTCTTCTGGATCTCAGACTGTGCTAG | 0.249 |
| CTTTACTTCACTCTCTGCTTGTGCTAG | 2.05 |
| GACGGGATCCTACTGCTGACGTGCTAG | -0.457 |
| TTAGATATCAATCTCGATTAGTGCTAG | 0.999 |
| TAAGAAAAGCCACCAGGACCGTGCTAG | -0.716 |
| GGGCCAGCAGCCAGGTGGAGGTGCTAG | -0.578 |
| TTAGGTTCTCTTTTCCTTTAGTGCTAG | 0.849 |

Sample 3
Target: RNA binding protein fox-1 homolog 2, RRM domain, GST-SBP tag (RBFOX2, Homo sapiens, UniProt O43251-10, residues 100-194)
Technique: RNA Bind-n-Seq
Molecule type: RNA
Matrix: in vitro
Tested at: 365 nM
Notes: natural RNA segment, single round, ends assumed
Baseline: no-protein control
Reading: higher = stronger binding
Constant ends, left off below: GGGAGUUCUACAGUCCGACGAUC … UGGAAUUCUCGGGUGCCAA
Residues (chain): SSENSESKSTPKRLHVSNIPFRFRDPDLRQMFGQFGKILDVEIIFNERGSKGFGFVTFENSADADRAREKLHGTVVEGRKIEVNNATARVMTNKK
| Oligonucleotide | RBNS enrichment (R) |
| --- | --- |
| AAUAGAAUGCAAAUCAAAGAUAUAACCAGUGUGAUUGAUUGCAAGUAGUCAAGUGUAACUAACUCCUAAGGGCAACCAUUUGUAUCUUAUAUAUCAGAAUUACUUUAUAG | 0.632 |
| AGCCUCCCAAGCAACACACUAUGGGGGAGAGGGGGUGUCAAGAAACUCCAGCUCACACAUCUACCCAAGAUGCUUGGGGUUCUCUUUUUUCAUCUGAUUAUGUUAGGCCC | 0.391 |
| UGGCUGUGGCAAGCUGUGAGCCCUCGCCUUGUCUGGGCCAAUCUGAGGACUGAACUGACCAGAUAGCGGCCCCAUCACCCCUACUGCUCCUUGGACCCCUUGGCCCAACC | 0.242 |
| UGCUCUCUGGCUAAAGUCACGGUCAAACCUAAACACCGAGCCUCAUUAACCCAAGUGAACCAACCAAAGUCACCAGUUCAGAAGUGCUAAGCUAAUAGGAGUCUGACCCG | 0.25 |
| CACCGAAACCCGCGCCCAGGAGUAUGGCUGAGGCCUUGCCCACCCACCUGCCUGGGAAGUGCAGAGUGGAUGGACGGGUUUAGAGGGGAGGGGCGAAGGUGCUGUAAACA | 0.864 |
| UCAAUGUUUUAUUCUGAAGUAAACGUUAGCUCUACAUAUAAAUCCUGGAACAGAAAUUGUUUAUAGAGACUACACUAAUUAUUUUAACUGUAUACAUCUGUUUAAUUUGA | 0.281 |
| GAACACAGCCAUCUUGGCCCACUAUCAGGACCAGGCAUGACUCACCAGUGUCAUCUCUGCACUUCAGGAAUUGUCAACAACUGAGGUGGCCCUUGUCAGCACUUCUUUUU | 0.423 |
| CGAUUUUUGAUCAAUUCUUUAAUUUUGGAAGCCUAUAAUACAGUUUUCUAUUCUUGGAGAUAAAAAUUAAAUGGAUCACUGAUAUUUUAGUCAUUCUGCUUCUCAUCUAA | 0.498 |
| UGCCACAGACAGCACAGCCCUUGCCCAGAAGCAGCUGAACAAUUCCUAACCCAUUUCAUCUCGGUUCUGUAUGGGUUUUUCCCGUGCAUGGAAGGGAGGCAGCUCAGGGA | 3.71 |
| UGAACAGAACUGCUAUUUCCUCUAAUGAAGAAUUCUGUUUAGCUGUGGGUGUGCCGGGUGGGGUGUGUGUGAUCAAAGGACAAAGACAGUAUUUUGACAAAAUACGAAGU | 1.17 |
| UGCUCAAACUGUCAUGGCACCACGGGCAAUGCGGUCCUCCCUACCGUUCUCCUUCCCCUUCUCUGCAUCUGCUUUCUCCAGGUCCCCGUAUAUCAACCUUCGACUUUCUC | 2.16 |
| CCCUCACGGCUGAUCAAUAAUGUUGCAAAGGGAGACUACAGGGAUCUCACGACGAAUAUUCUGAUACAAUACUCAACCUCGGUAUAUAUAUAUGUGUAUAAAUAUAUGUA | 0.454 |

Sample 4
Target: Histone acetyltransferase KAT6A, winged helix 1, GST fusion (KAT6A, Homo sapiens, UniProt Q92794, residues 1-85)
Technique: protein binding microarray
Molecule type: double-stranded DNA, one strand shown
Matrix: in vitro
Tested at: not given
Notes: 8-mer, flanks averaged, mean of 2 arrays, mostly near background
Baseline: not given
Reading: higher = stronger binding
Target sequence (chain): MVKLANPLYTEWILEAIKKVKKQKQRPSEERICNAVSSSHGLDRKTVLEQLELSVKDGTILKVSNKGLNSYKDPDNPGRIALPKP
| Oligonucleotide | E-score |
| --- | --- |
| ATTTAATG | -0.0339 |
| TACCGACA | 0.134 |
| CCGGCATC | 0.329 |
| TAACACAA | -0.0442 |
| GTTCTGAA | -0.178 |
| ACAGTTAC | 0.000225 |
| ATGGGGCC | 0.017 |
| CGACGCCA | 0.294 |
| CCGTCCAG | 0.081 |
| TAAAGGCA | -0.205 |
| TACCTGAA | -0.0277 |
| AAGGAAGT | -0.0294 |
| ACCGAAAG | -0.113 |
| GGAGATAC | 0.0178 |
| CCGAGGAA | -0.0713 |
| GTGAAACA | -0.0704 |
| AACATGTC | -0.0774 |
| CTCTAGAA | -0.211 |
| GTGCGAAA | -0.0474 |

Repeated from above (sample 4):
| Oligonucleotide | E-score |
| --- | --- |
| CGACGCCA | 0.294 |
| CCGTCCAG | 0.081 |
| TAAAGGCA | -0.205 |
| TACCTGAA | -0.0277 |
| AAGGAAGT | -0.0294 |
| ACCGAAAG | -0.113 |
| GGAGATAC | 0.0178 |
| CCGAGGAA | -0.0713 |
